Published values of several laboratories.
Compare with care: the assays were run in different laboratories. Numbers after ± are the reported error.

`COc1cc(Br)c2oc(C3CCNCC3)cc2c1` has a CC50 of 19.1 µM (African green monkey cells; 5 days).
`Cn1c(N)nc2c3cccnc3ccc21` gave an IC10 of over 335 µM (rat hepatoma cells; cytotoxicity; 24 h, freely dissolved concentration).
`CC(C)C[C@H](NC(=O)[C@H](CCCCN)NC(=O)[C@H](CC(C)C)NC(=O)[C@H](CC(C)C)NC(=O)[C@H](CCCCN)NC(=O)CNC(=O)[C@H](CC(C)C)NC(=O)CNC(=O)[C@H](CCCCN)NC(=O)[C@H](CC(C)C)NC(=O)[C@H](CC(C)C)NC(=O)[C@H](CCCCN)NC(=O)[C@@H](N)CC(C)C)C(=O)O`: “lowest cytotoxic concentration” over 256 µg/mL (HEK-293T cells; CCK-8; 4 h, 37 °C, 10% cell death).
With `CC(=O)N[C@@H](CCCCN)C(=O)N[C@@H](CCCCN)C(=O)N[C@@H](CC(C)C)C(=O)N[C@@H](CC(C)C)C(=O)N[C@@H](CCCCN)C(=O)N[C@@H](CC(C)C)C(=O)N[C@@H](CC(C)C)C(=O)N[C@@H](CCCCN)C(=O)N[C@@H](CCCCN)C(=O)N1CCC[C@H]1C(=O)N[C@@H](CC(C)C)C(=O)N[C@@H](CCCCN)C(=O)N[C@@H](CC(C)C)C(=O)N[C@@H](CC(C)C)C(=O)N[C@@H](C)C(N)=O` the MHC10 was over 160 µM (human red blood cells; haemolysis; 6 h, 37 °C, 5% haematocrit in PBS).
`CC(C)C[C@H](NC(=O)CN)C(=O)N[C@@H](CCCCN)C(=O)N[C@@H](CCCCN)C(=O)N[C@@H](CC(C)C)C(=O)N[C@@H](CC(C)C)C(=O)N[C@@H](CC(C)C)C(=O)N[C@@H](CC(C)C)C(=O)N[C@@H](CC(C)C)C(=O)N[C@@H](CCCCN)C(=O)N[C@@H](CCCCN)C(=O)N[C@@H](CC(C)C)C(=O)NCC(=O)NCC(=O)NCC(=O)N[C@@H](Cc1ccccc1)C(=O)N[C@@H](CO)C(=O)N[C@@H](CC(C)C)C(=O)N[C@@H](C)C(=O)N1CCC[C@H]1C(=O)N[C@@H](Cc1ccc(O)cc1)C(=O)N[C@@H](C)C(=O)N1CCC[C@H]1C(=O)N[C@@H](C)C(=O)N1CCC[C@H]1C(=O)N[C@H](C(=O)N[C@@H](CC(N)=O)C(=O)O)C(C)C` — result for “lowest cytotoxic concentration”: 64 µg/mL (HEK-293T cells; CCK-8; 4 h, 37 °C, 10% cell death).
The CC50 of `CN1CCCC(CC2c3ccccc3Sc3ccccc32)C1` (stereo not shown) is reported as 10.1 µM (African green monkey cells; 5 days).
With `CN(CCC=C1c2ccccc2CCc2ccccc21)N=O` the relative survival was 71.8% (TK6 expressing CYP2C19; 0.125 µM, 4 h, without S9; reference: vehicle).
With `Nc1nc2c(ncn2[C@@H]2O[C@@H]3COP(=O)(O)O[C@H]4[C@@H](O)[C@H](n5cnc6c(=O)[nH]c(N)nc65)O[C@@H]4COP(=O)(O)O[C@H]3[C@H]2O)c(=O)[nH]1` the viability was 94.5% (HFF-1; 10 µg/mL).
For `Cc1ccccc1CN1CCN(CCOC(c2ccccc2)c2ccccc2Cl)CC1` (stereo not shown), the CC50 was 15.3 µM (African green monkey cells; 5 days).
`O=c1ccc2ccccc2o1` has a chance response of 0.19% (NHEK; cell cycle arrest; concentration not given, 6 h).
For `COc1cc2c(c(OC)c1OC)-c1ccc(OC)c(=O)cc1[C@@H](NC(C)=O)CC2`, the mitotic cells was 22.9 fold (HepG2 spheroids; flow cytometry, item: phospho-histone H3; 0.1 µM, 24 h; reference: solvent control).
`c1ccc(C(O[C@@H]2CCCN(CCc3ccc4c(c3)OCO4)C2)c2ccccc2)cc1` gave a CC50 of over 100 µM (African green monkey cells; 5 days).
For `O=S(=O)(c1ccc(O)cc1)c1ccc(O)cc1`, the viable cells was 36.8 ± 14% (HepG2 spheroids, dissociated; annexin V-FITC/PI flow cytometry; 0.10 µM, 96 h).
With `COC(=O)N[C@H](C(=O)N1CCC[C@H]1c1nc(-c2ccc(-c3ccc(-c4c[nH]c([C@@H]5CCCN5C(=O)[C@@H](NC(=O)OC)C(C)C)n4)cc3)cc2)c[nH]1)C(C)C` the CC50 was 19.7 µM (African green monkey cells; 5 days).
With `N[C@H](CCC(=O)N[C@H](CCC[C@H](N)C(=O)O)C(=O)O)C(=O)O` the viability was 89.3% (HFF-1; 1 µg/mL).
For `CC[C@H](C)[C@H](NC(=O)[C@H](Cc1c[nH]cn1)NC(=O)[C@@H](NC(=O)[C@@H](NC(=O)[C@H](CC(C)C)NC(=O)[C@H](CCCCN)NC(=O)[C@H](CCCCN)NC(=O)[C@@H]1CCCN1C(=O)[C@H](CC(C)C)NC(=O)[C@H](CC(C)C)NC(=O)[C@H](CCC(N)=O)NC(=O)[C@@H](NC(=O)CNC(=O)[C@H](CC(C)C)NC(=O)[C@H](CCC(N)=O)NC(=O)[C@H](CC(C)C)NC(=O)[C@H](CCCNC(=N)N)NC(=O)[C@H](CC(N)=O)NC(=O)[C@H](CCCCN)NC(=O)[C@H](CC(N)=O)NC(=O)[C@H](CCCNC(=N)N)NC(=O)[C@@H](NC(=O)[C@H](CO)NC(=O)[C@H](Cc1ccccc1)NC(=O)[C@H](CC(C)C)NC(=O)[C@H](Cc1ccccc1)NC(=O)[C@H](C)NC(=O)[C@H](CC(N)=O)NC(=O)[C@H](CC(N)=O)NC(=O)[C@@H](NC(=O)[C@H](CCCNC(=N)N)NC(=O)[C@@H](N)Cc1c[nH]cn1)C(C)C)[C@@H](C)CC)C(C)C)C(C)C)C(C)C)C(=O)N[C@@H](CCCNC(=N)N)C(=O)NCC(=O)N[C@@H](CCCCN)C(=O)N[C@@H](CCC(N)=O)C(=O)N1CCC[C@H]1C(=O)N[C@@H](C)C(=O)N[C@H](C(=O)N[C@@H](Cc1ccccc1)C(=O)O)C(C)C`, the HC50 was 363 µmol/L (human red blood cells; hemolysis).

For quick reference, copied from above:
For `CC[C@H](C)[C@H](NC(=O)[C@H](Cc1c[nH]cn1)NC(=O)[C@@H](NC(=O)[C@@H](NC(=O)[C@H](CC(C)C)NC(=O)[C@H](CCCCN)NC(=O)[C@H](CCCCN)NC(=O)[C@@H]1CCCN1C(=O)[C@H](CC(C)C)NC(=O)[C@H](CC(C)C)NC(=O)[C@H](CCC(N)=O)NC(=O)[C@@H](NC(=O)CNC(=O)[C@H](CC(C)C)NC(=O)[C@H](CCC(N)=O)NC(=O)[C@H](CC(C)C)NC(=O)[C@H](CCCNC(=N)N)NC(=O)[C@H](CC(N)=O)NC(=O)[C@H](CCCCN)NC(=O)[C@H](CC(N)=O)NC(=O)[C@H](CCCNC(=N)N)NC(=O)[C@@H](NC(=O)[C@H](CO)NC(=O)[C@H](Cc1ccccc1)NC(=O)[C@H](CC(C)C)NC(=O)[C@H](Cc1ccccc1)NC(=O)[C@H](C)NC(=O)[C@H](CC(N)=O)NC(=O)[C@H](CC(N)=O)NC(=O)[C@@H](NC(=O)[C@H](CCCNC(=N)N)NC(=O)[C@@H](N)Cc1c[nH]cn1)C(C)C)[C@@H](C)CC)C(C)C)C(C)C)C(C)C)C(=O)N[C@@H](CCCNC(=N)N)C(=O)NCC(=O)N[C@@H](CCCCN)C(=O)N[C@@H](CCC(N)=O)C(=O)N1CCC[C@H]1C(=O)N[C@@H](C)C(=O)N[C@H](C(=O)N[C@@H](Cc1ccccc1)C(=O)O)C(C)C`, the HC50 was 363 µmol/L (human red blood cells; hemolysis).
